{"data": "Assay results pooled from the literature", "note": "Numbered parts are unrelated; each lists some results of a single study."}
{"data": "Sample 1", "target": "RNA binding protein fox-1 homolog 2, RRM domain, GST-SBP tag (RBFOX2, Homo sapiens, UniProt O43251-10, residues 100-194)", "method": "RNA Bind-n-Seq", "form": "RNA", "medium": "in vitro", "tested at": "365 nM", "notes": "natural RNA segment, single round, ends assumed", "baseline": "no-protein control", "direction": "higher = stronger binding", "Target sequence (chain)": "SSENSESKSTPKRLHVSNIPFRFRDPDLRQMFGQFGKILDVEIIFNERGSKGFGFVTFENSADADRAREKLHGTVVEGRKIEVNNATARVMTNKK"}
{"Oligonucleotide": "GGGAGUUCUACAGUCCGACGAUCCAUAAACUCCUCCCUUUGGGAGGCUGGCAAAAAAGGGGCUGUGCUCUCCCUGGUUAAGCAGUUUGUACUACAGAACCCCCGAGCUGCUGUGGGUCCUACAGGUGCUUCCAUGGAAUUCUCGGGUGCCAA", "RBNS enrichment (R)": 0.395}
{"Oligonucleotide": "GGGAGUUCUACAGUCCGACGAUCGGUGGGGCUGGGAGAGGAGGAACAGAAGGAAAGCCAUAGCGCUCUCUUGCCCCUUGGCAUGUACCCCAAGGCCUGAUGGCCACUGGGCUCAGCCUGUCCCCCACUCCUGCUGGAAUUCUCGGGUGCCAA", "RBNS enrichment (R)": 0.237}
{"Oligonucleotide": "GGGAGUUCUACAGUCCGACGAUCUGGUAAACGUGGCAGAGCAGAAUGGGAGGCUGGACCCUGAGGAAGGGCCCCUCUCCUGGCAUCUGUCUCUUGCUACCUAAGCCUGUGCCUCUCCCUAAAGAGCUGCCUCCUGGAAUUCUCGGGUGCCAA", "RBNS enrichment (R)": 0.2}
{"Oligonucleotide": "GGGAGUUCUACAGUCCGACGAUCUGAAAGGCUUUUGGUGAAAAUGAAGGGAUUUCAUUUGAAAUUACAGCAUGAUGAAUUUUGCAUGGGUGGCCAGCCAGCUAGCCCAUAACUGAUAGAUGCAUUAGAAGUCAUGGAAUUCUCGGGUGCCAA", "RBNS enrichment (R)": 2.1}
{"Oligonucleotide": "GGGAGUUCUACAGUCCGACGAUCUCGGAGCUAAGUGUAUAUAUGAGUAGUUUGCCAAUGGAUAACACAGUGUAAACAGUAGACACCCAGAAAAUCGUGACUUCUGUGUUCUCUCCAUUUGAGUAUUUUGUAAUUGGAAUUCUCGGGUGCCAA", "RBNS enrichment (R)": 0.48}
{"Oligonucleotide": "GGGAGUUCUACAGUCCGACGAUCAGAAGGAAAGGAGGAAGAAAUGUUUUCUUAGGGGAAUUCGCUAGGUUUUAACGAUUUGUUUCUCCUGCUCCUCUUCUGUCAGACCUGACCCCACACAAACCUGUCCCCUCUGGAAUUCUCGGGUGCCAA", "RBNS enrichment (R)": 0.267}
{"Oligonucleotide": "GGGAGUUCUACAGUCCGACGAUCCCUGCCUGGGUGUCACUUUCUAGACAGUAAGGCGCUCCACUGCUUGCUGUCUGAGAUAUCCUUCAUAGUAUUCCAUGGCUCCCAUACUGCAGUCUAGUUAAGCAAAGAACUGGAAUUCUCGGGUGCCAA", "RBNS enrichment (R)": 0.284}
{"Oligonucleotide": "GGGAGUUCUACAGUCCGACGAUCCCUUGCUAAAGAUUGAAGUAGGUUCUCUUAAAAGGUCUAUUGAUGGACAUGUCUGAGCAGAGAAACCGUGGAAUAGAAUAUGGUGCGUGGGCUGCUAACAGCAAGAGGGAUGGAAUUCUCGGGUGCCAA", "RBNS enrichment (R)": 0.967}
{"data": "Sample 2", "target": "Prothrombin, mature alpha-thrombin (F2, Homo sapiens, UniProt P00734)", "method": "aptamer microarray, sandwich", "form": "DNA with 2'F-ANA", "medium": "in vitro", "tested at": "200 nM", "notes": "whole 15-mer aptamer, many near background", "added": "Cy3 exosite-II aptamer, 400 nM", "direction": "higher = stronger binding", "oligonucleotide": "GGTTGGTGTGGTTGG"}
{"Modification": "2'F-ANA at 2 3 5 6 7 9 10 13 15", "mean fluorescence intensity [a.u.]": 57.2}
{"Modification": "2'F-ANA at 1 3 5 6 7 9 13 15", "mean fluorescence intensity [a.u.]": 49.4}
{"Modification": "2'F-ANA at 1 12", "mean fluorescence intensity [a.u.]": 425}
{"Modification": "2'F-ANA at 2 3 5 6 8 11 13 15", "mean fluorescence intensity [a.u.]": 92}
{"Modification": "2'F-ANA at 3 5 7 9 11 12", "mean fluorescence intensity [a.u.]": 217}
{"Modification": "2'F-ANA at 3 4 5 11 12 15", "mean fluorescence intensity [a.u.]": 150}
{"Modification": "2'F-ANA at 5 7 9 10 12 13 15", "mean fluorescence intensity [a.u.]": 104}
{"Modification": "2'F-ANA at 3 4 6 8 10 11 12 14 15", "mean fluorescence intensity [a.u.]": 140}
{"Modification": "2'F-ANA at 1 2 7 8 11 12 15", "mean fluorescence intensity [a.u.]": 349}
{"Modification": "2'F-ANA at 1 2 4 6 7 9 12 13", "mean fluorescence intensity [a.u.]": 201}
{"Modification": "2'F-ANA at 2 3 5 7 8 11 13 15", "mean fluorescence intensity [a.u.]": 99.8}
{"Modification": "2'F-ANA at 3 4 6 7 8 13 14 15", "mean fluorescence intensity [a.u.]": 302}
{"Modification": "2'F-ANA at 1 3 4 5 6 8 10 12 15", "mean fluorescence intensity [a.u.]": 49.9}
{"Modification": "2'F-ANA at 1 2 3 5 6 7", "mean fluorescence intensity [a.u.]": 67.5}
{"Modification": "2'F-ANA at 1 4 6 7 8 12 13 14 15", "mean fluorescence intensity [a.u.]": 59.8}
{"Modification": "2'F-ANA at 2 8 9 10 12 13 14 15", "mean fluorescence intensity [a.u.]": 81}
{"Modification": "2'F-ANA at 1 3 4 7 8 12 14 15", "mean fluorescence intensity [a.u.]": 107}
{"Modification": "2'F-ANA at 2 3 5 7 13", "mean fluorescence intensity [a.u.]": 76.1}
{"Modification": "2'F-ANA at 5 6 7 11 13 15", "mean fluorescence intensity [a.u.]": 52.8}
{"Modification": "2'F-ANA at 1 2 3 4 9 10 12 13 15", "mean fluorescence intensity [a.u.]": 66.8}
{"Modification": "2'F-ANA at 2 6 8 10 11 14 15", "mean fluorescence intensity [a.u.]": 122}
{"Modification": "2'F-ANA at 1 2 3 6 7 11 12", "mean fluorescence intensity [a.u.]": 317}
{"Modification": "2'F-ANA at 1 5 8 10 11 13", "mean fluorescence intensity [a.u.]": 42.2}
{"Modification": "2'F-ANA at 3 4 5 11 14", "mean fluorescence intensity [a.u.]": 54.9}
{"data": "Sample 3", "target": "Histone acetyltransferase KAT6A, both winged helices, GST fusion (KAT6A, Homo sapiens, UniProt Q92794, residues 1-181)", "method": "protein binding microarray", "form": "double-stranded DNA, one strand shown", "medium": "in vitro", "tested at": "not given", "notes": "8-mer, flanks averaged, mean of 2 arrays, mostly near background", "baseline": "not given", "direction": "higher = stronger binding", "Construct (chain)": "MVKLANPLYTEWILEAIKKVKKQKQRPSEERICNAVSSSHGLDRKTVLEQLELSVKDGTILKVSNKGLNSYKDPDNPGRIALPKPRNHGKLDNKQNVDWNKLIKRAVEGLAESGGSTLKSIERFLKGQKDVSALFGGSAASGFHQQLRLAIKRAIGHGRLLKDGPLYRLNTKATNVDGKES"}
{"Oligonucleotide": "CTCCCCTA", "E-score": -0.152}
{"Oligonucleotide": "AATCTCGA", "E-score": -0.0737}
{"Oligonucleotide": "CCACGGCC", "E-score": 0.132}
{"Oligonucleotide": "AATGAAGG", "E-score": -0.112}
{"Oligonucleotide": "AGCGGCAG", "E-score": 0.266}
{"Oligonucleotide": "ATTATCGG", "E-score": 0.169}
{"Oligonucleotide": "ACTCGGCA", "E-score": 0.115}
{"Oligonucleotide": "CTGGGAAC", "E-score": -0.0568}
{"Oligonucleotide": "CTGAAGGC", "E-score": -0.143}
{"Oligonucleotide": "TCGCCCGA", "E-score": 0.124}
{"Oligonucleotide": "GCTAGAGC", "E-score": 0.0533}
{"Oligonucleotide": "GTTTGAAA", "E-score": -0.0355}
{"Oligonucleotide": "GGAACTAC", "E-score": 0.0934}
{"Oligonucleotide": "AAATTAGA", "E-score": -0.0824}
{"Oligonucleotide": "AACTTCCG", "E-score": 0.113}
{"Oligonucleotide": "CTAAGCTA", "E-score": -0.141}
{"Oligonucleotide": "GTCGCCAC", "E-score": 0.0278}
{"Oligonucleotide": "ATTTTTTG", "E-score": -0.0912}
{"Oligonucleotide": "ACCCGCCA", "E-score": 0.128}
{"Oligonucleotide": "AGGCGGTA", "E-score": 0.173}
{"Oligonucleotide": "AGGCTCTA", "E-score": -0.0819}
{"Oligonucleotide": "AGATCGTA", "E-score": -0.144}
{"Oligonucleotide": "GCGTCTAC", "E-score": 0.235}
{"Oligonucleotide": "CGCTAGCA", "E-score": 0.0202}
{"Oligonucleotide": "CCGGTAAG", "E-score": 0.167}
{"data": "Sample 4", "target": "Interferon regulatory factor 7, full length, phosphomimetic (IRF7, Homo sapiens, UniProt Q92985, residues 1-503, S471D/S472D/S475D/S476D/S477D/S483D/S484D/S487D)", "method": "protein-binding microarray", "form": "double-stranded DNA, one strand shown", "medium": "in vitro", "tested at": "2200 nM top", "notes": "60-bp whole probe", "added": "salmon DNA 0.4 mg/ml", "baseline": "random background probes", "direction": "higher = stronger binding", "all sequences stand within": "GCCTAGCAC … GTCTTGATTCGCTTGACGCTGCTG", "Residues (chain)": "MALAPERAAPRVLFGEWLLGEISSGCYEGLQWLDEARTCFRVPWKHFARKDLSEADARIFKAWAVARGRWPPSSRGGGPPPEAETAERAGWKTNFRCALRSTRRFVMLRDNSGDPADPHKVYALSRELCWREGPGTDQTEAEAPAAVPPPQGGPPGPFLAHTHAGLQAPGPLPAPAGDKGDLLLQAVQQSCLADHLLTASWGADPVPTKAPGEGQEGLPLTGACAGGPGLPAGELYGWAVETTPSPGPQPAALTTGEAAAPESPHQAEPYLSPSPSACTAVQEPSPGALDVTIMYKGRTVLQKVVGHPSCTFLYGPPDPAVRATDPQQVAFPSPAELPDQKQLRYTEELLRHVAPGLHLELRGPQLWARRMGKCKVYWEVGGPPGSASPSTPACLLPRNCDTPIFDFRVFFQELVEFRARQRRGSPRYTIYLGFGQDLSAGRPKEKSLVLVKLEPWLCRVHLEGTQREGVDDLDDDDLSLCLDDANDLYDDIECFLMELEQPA"}
{"Oligonucleotide": "GACGATTTCCTTTTCCTGACGTGCTAG", "fitted relative affinity": "3.16 z-score"}
{"Oligonucleotide": "TTAGGACTGGGTTTCGGTTCGTGCTAG", "fitted relative affinity": "8.53 z-score"}
{"Oligonucleotide": "TCACACCAGAGGGCGCTGTGGTGCTAG", "fitted relative affinity": "-0.361 z-score"}
{"Oligonucleotide": "TTAGATATCAGACTGGATCAGTGCTAG", "fitted relative affinity": "-0.127 z-score"}
{"Oligonucleotide": "ACTGCTCTGTTGCCTGGTCCTGTGCTA", "fitted relative affinity": "1.33 z-score"}
{"Oligonucleotide": "GACGGTTCCCTCTTCCTGACGTGCTAG", "fitted relative affinity": "2.25 z-score"}
{"Oligonucleotide": "CATTTTCTTTAACTCATTCTGTGCTAG", "fitted relative affinity": "2.36 z-score"}
{"Oligonucleotide": "GTAGATTTCAGACTGGATTAGTGCTAG", "fitted relative affinity": "0.125 z-score"}
{"Oligonucleotide": "TCAATTTTGGTTTTCATACTGTGCTAG", "fitted relative affinity": "2.78 z-score"}
{"Oligonucleotide": "GACGGTTTGGGGTATCGGGACGTGCTA", "fitted relative affinity": "0.537 z-score"}
{"Oligonucleotide": "TTAGGTATCGGTCTCGGGTAGTGCTAG", "fitted relative affinity": "0.586 z-score"}
{"Oligonucleotide": "GACGATATCAGACTGGAAACGTGCTAG", "fitted relative affinity": "0.136 z-score"}
{"Oligonucleotide": "TCATTTCCAATTCTCTTACTGTGCTAG", "fitted relative affinity": "2.99 z-score"}
{"Oligonucleotide": "TTAGGTTTCCTACGGCTTTAGTGCTAG", "fitted relative affinity": "0.759 z-score"}
{"note": "Excerpt of the above (sample 2):"}
{"Modification": "2'F-ANA at 3 4 5 11 14", "mean fluorescence intensity [a.u.]": 54.9}
{"Modification": "2'F-ANA at 1 2 3 5 6 7", "mean fluorescence intensity [a.u.]": 67.5}
{"Modification": "2'F-ANA at 3 4 6 8 10 11 12 14 15", "mean fluorescence intensity [a.u.]": 140}
{"Modification": "2'F-ANA at 1 3 4 7 8 12 14 15", "mean fluorescence intensity [a.u.]": 107}
{"Modification": "2'F-ANA at 2 3 5 7 8 11 13 15", "mean fluorescence intensity [a.u.]": 99.8}
{"Modification": "2'F-ANA at 1 2 3 4 9 10 12 13 15", "mean fluorescence intensity [a.u.]": 66.8}
{"Modification": "2'F-ANA at 2 3 5 6 8 11 13 15", "mean fluorescence intensity [a.u.]": 92}
